Measurements collected from several papers.
A part holds a random share of what one study measured.
Chain of UniProt P14416 (whole entry, looked up): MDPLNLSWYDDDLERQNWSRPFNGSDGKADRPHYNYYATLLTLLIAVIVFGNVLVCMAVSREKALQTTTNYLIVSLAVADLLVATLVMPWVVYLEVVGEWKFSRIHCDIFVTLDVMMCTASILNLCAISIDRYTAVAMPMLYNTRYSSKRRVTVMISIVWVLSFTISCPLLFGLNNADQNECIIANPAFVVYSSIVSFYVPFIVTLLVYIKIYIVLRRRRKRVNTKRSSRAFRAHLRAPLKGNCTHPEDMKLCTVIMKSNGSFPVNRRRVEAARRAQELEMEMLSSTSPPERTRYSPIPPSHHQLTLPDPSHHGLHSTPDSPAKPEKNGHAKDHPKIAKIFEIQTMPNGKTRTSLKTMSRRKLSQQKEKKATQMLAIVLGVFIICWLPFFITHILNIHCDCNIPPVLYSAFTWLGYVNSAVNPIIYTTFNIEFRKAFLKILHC

Sample 1 — observed: enzyme activity; mode: inhibitor; concentration: 0.5 µM; baseline: control
Target: Dual specificity tyrosine-phosphorylation-regulated kinase 1A (DYRK1A, Homo sapiens, UniProt Q13627)
SMILES	remaining activity
Cc1cc(Nc2nc(-c3ccccc3)nc3ccccc23)n[nH]1	104%
CC#CC(=O)Nc1cc2c(Nc3ccc(F)c(Cl)c3)ncnc2cn1	96.4%
O=S(=O)(NCCNC/C=C/c1ccc(Br)cc1)c1cccc2cnccc12	98.5%
CSc1nc(-c2ccnc(N[C@@H](C)c3ccccc3)c2)c(-c2ccc(F)cc2)[nH]1 (racemic)	97.9%
N#CC(=C(N)Sc1ccc(N)cc1)c1ccccc1C(F)(F)F	93.9%
Cc1ccc(NC2=CC(=O)c3sc(C)nc3C2=O)cc1	103%
Fc1ccc(-c2nc3n(c2-c2ccncc2)CCS3)cc1	97.5%
CC(=O)c1ccc(N2CCOCC2)cc1O	98%
CC[n+]1c(/C=C/N(C)c2ccccc2)n(-c2ccccc2)c2ccc(-c3nc4ccccc4s3)cc21	96.7%
Nc1nc(Nc2ccc(S(N)(=O)=O)cc2)nn1C(=O)c1c(F)cccc1F	101%
Nc1ncnc2c1cnn2-c1ccccc1	96.8%
Oc1ccc(Nc2nc(-c3ccc(Cl)cc3)cs2)cc1	96.6%
CCc1[nH]c(-c2ccc(OC)cc2)nc1-c1ccncc1	97.7%
Nc1nccc(-c2c(-c3ccc(F)cc3)ncn2C2CCNCC2)n1	96.3%
Cc1cncc2cccc(S(=O)(=O)N3CCCN(C(=O)CN)C[C@@H]3C)c12	93.1%
O=C1Cc2c([nH]c3ccc([N+](=O)[O-])cc23)-c2ccccc2N1	86.2%
CC(C)(C)n1nc(Cc2cccc3ccccc23)c2c(N)ncnc21	92.5%
O=C1NC(=O)C(c2c[nH]c3ccccc23)=C1c1c[nH]c2ccccc12	80.8%

Sample 2 — observed: enzyme activity; mode: inhibitor; concentration: 10 µM
Target: Calcium/calmodulin-dependent protein kinase type II subunit alpha (CAMK2A, Homo sapiens, UniProt Q9UQM7)
Chain of UniProt Q9UQM7 (whole entry, looked up): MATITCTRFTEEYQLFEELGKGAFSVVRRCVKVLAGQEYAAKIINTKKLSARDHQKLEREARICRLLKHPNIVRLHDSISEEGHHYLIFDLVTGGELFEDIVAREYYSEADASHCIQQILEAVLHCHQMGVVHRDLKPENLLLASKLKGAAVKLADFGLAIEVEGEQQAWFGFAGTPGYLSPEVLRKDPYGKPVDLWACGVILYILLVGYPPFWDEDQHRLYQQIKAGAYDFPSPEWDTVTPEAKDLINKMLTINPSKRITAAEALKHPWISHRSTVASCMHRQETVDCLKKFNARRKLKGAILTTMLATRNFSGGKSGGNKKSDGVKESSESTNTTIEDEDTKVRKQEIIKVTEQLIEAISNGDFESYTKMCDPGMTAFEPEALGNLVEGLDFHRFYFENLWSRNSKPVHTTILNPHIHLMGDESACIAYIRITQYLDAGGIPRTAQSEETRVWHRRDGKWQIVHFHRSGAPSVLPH
SMILES	inhibition [%]
C[C@@H]([C@H](C)O)[C@H](N)C(=O)O	37
O=c1cc(-c2ccc(O)cc2)oc2cc(O)ccc12	38
O=C(CCCN1CCN(c2ccccn2)CC1)c1ccc(F)cc1	-17
C[C@H]1c2cccc(O)c2C(=O)C2=C(O)[C@]3(O)C(=O)C(C(N)=O)=C(O)[C@@H](N(C)C)[C@@H]3[C@@H](O)[C@@H]21	-8
N[C@@H](CCSSCC[C@H](N)C(=O)O)C(=O)O	2
CCCCCCCCCCCCC/C=C/[C@@H](O)[C@@H](N)CO	-32
CC(C)=CCC[C@](C)(O[C@@H]1O[C@H](CO[C@@H]2O[C@H](CO)[C@@H](O)[C@H](O)[C@H]2O)[C@@H](O)[C@H](O)[C@H]1O)[C@H]1CC[C@]2(C)[C@@H]1[C@H](O)C[C@@H]1[C@@]3(C)CC[C@H](O[C@@H]4O[C@H](CO)[C@@H](O)[C@H](O)[C@H]4O)C(C)(C)[C@@H]3CC[C@]12C	45
O=C(O)[C@H](O)[C@@H](O)[C@H](O[C@@H]1O[C@H](CO)[C@H](O)[C@H](O)[C@H]1O)[C@H](O)CO	-15
CO[C@H]1C(=O)[C@]2(C)[C@@H](OC)C[C@H]3OC[C@@]3(OC(C)=O)[C@H]2[C@H](OC(=O)c2ccccc2)[C@]2(O)C[C@H](OC(=O)[C@H](O)[C@@H](NC(=O)OC(C)(C)C)c3ccccc3)C(C)=C1C2(C)C	3
CC1COc2c(N3CCN(C)CC3)c(F)cc3c(=O)c(C(=O)O)cn1c23 (centres unmarked)	-14
O=C(O)CCNC(=O)c1ccccc1	-3
C=C[C@]1(C)C[C@@H](OC(=O)CS[C@@H]2C[C@H]3CC[C@@H](C2)N3C)[C@]2(C)[C@H](C)CC[C@]3(CCC(=O)[C@H]32)[C@@H](C)[C@@H]1O	-6

Sample 3 — method: logD(dd/w) and ALogP; setting: JT method
SMILES	lipophilic permeability efficiency
CC(C)C[C@@H]1NC(=O)[C@H](CCC(=O)N2CCCC2)NC(=O)[C@H](CCC(=O)N2CCCC2)NC(=O)[C@@H](Cc2cscn2)NC(=O)[C@H](CC(C)C)NC(=O)[C@@H](CC(C)C)NC(=O)[C@H](CC(C)C)NC1=O	1.61
CC(C)C[C@@H]1NC(=O)[C@H](Cc2cscn2)NC(=O)[C@H](CCC(=O)N2CCCC2)NC(=O)[C@@H](CCC(=O)N2CCCC2)NC(=O)[C@H](CC(C)C)NC(=O)[C@@H](CC(C)C)NC(=O)[C@H](CC(C)C)NC1=O	1.92
CC(C)C[C@@H]1NC(=O)[C@H](CC(C)C)NC(=O)[C@@H](CC(C)C)NC(=O)[C@H](C(C)C)NC(=O)[C@H](C)NC(=O)[C@H](C)NC(=O)[C@H](CCC(=O)N2CCCC2)NC1=O	1.33
CC(C)C[C@@H]1NC(=O)[C@H](CC(C)C)NC(=O)[C@@H](CC(C)C)NC(=O)[C@H](C(C)C)NC(=O)[C@@H](CCC(=O)N2CCCC2)NC(=O)[C@H](C)NC(=O)[C@H](C)NC1=O	1.3
CC(C)C[C@@H]1NC(=O)[C@H](CC(C)C)NC(=O)[C@H](CC(C)C)NC(=O)[C@H](C(C)C)NC(=O)[C@@H](Cc2cscn2)NC(=O)[C@H](Cc2cscn2)NC(=O)[C@H](CCC(=O)N2CCCC2)NC1=O	2.1
CC(C)C[C@@H]1NC(=O)[C@H](CC(C)C)NC(=O)[C@@H](CC(C)C)NC(=O)[C@H](C)NC(=O)[C@@H](Cc2cscn2)NC(=O)[C@H](C)NC(=O)[C@H](CCC(=O)N2CCCC2)NC1=O	1.8
CC(C)C[C@@H]1NC(=O)[C@H](CC(C)C)NC(=O)[C@@H](CC(C)C)NC(=O)[C@H](Cc2cscn2)NC(=O)[C@@H](Cc2cscn2)NC(=O)[C@H](Cc2cscn2)NC(=O)[C@H](CCC(=O)N2CCCC2)NC1=O	1.94
CC(C)C[C@@H]1NC(=O)[C@H](C)NC(=O)[C@H](CCC(=O)N2CCCC2)NC(=O)[C@H](CC(C)C)NC(=O)[C@@H](Cc2cscn2)NC(=O)[C@H](CC(C)C)NC(=O)[C@@H](CC(C)C)NC1=O	1.49
CC(C)C[C@@H]1NC(=O)[C@H](C(C)C)NC(=O)[C@H](CCC(=O)N2CCCC2)NC(=O)[C@H](CCC(=O)N2CCCC2)NC(=O)[C@@H](Cc2cscn2)NC(=O)[C@H](CC(C)C)NC(=O)[C@@H](CC(C)C)NC1=O	1.41
CC(C)C[C@@H]1NC(=O)[C@H](C)NC(=O)[C@H](Cc2cscn2)NC(=O)[C@H](CC(C)C)NC(=O)[C@H](C(C)C)NC(=O)[C@H](CC(C)C)NC(=O)[C@@H](CC(C)C)NC1=O	1.86
CC(C)C[C@@H]1NC(=O)[C@H](CC(C)C)NC(=O)[C@@H](C(C)C)NC(=O)[C@H](C(C)C)NC(=O)[C@H](C)NC(=O)[C@H](Cc2cscn2)NC(=O)[C@H](CCC(=O)N2CCCC2)NC1=O	1.23
CC(C)C[C@@H]1NC(=O)[C@H](Cc2cscn2)NC(=O)[C@H](C)NC(=O)[C@H](CC(C)C)NC(=O)[C@@H](CCC(=O)N2CCCC2)NC(=O)[C@H](CC(C)C)NC(=O)[C@@H](CC(C)C)NC1=O	2.05
CC(C)C[C@@H]1NC(=O)[C@H](CC(C)C)NC(=O)[C@@H](CC(C)C)NC(=O)[C@H](C(C)C)NC(=O)[C@@H](CCC(=O)N2CCCC2)NC(=O)[C@H](Cc2cscn2)NC(=O)[C@H](C)NC1=O	1.6

Further values, each from its own experiment
Structure (SMILES)	target	test	setting	endpoint	value
COc1cccc(NC(=O)c2nc3scc(CN(C)Cc4ccccc4)c3c(=O)[nH]2)c1	D(2) dopamine receptor (DRD2, Homo sapiens, UniProt P14416)	ligand displacement	10 µM	inhibition	12.5%

A few entries again (sample 1):
SMILES	remaining activity
Nc1ncnc2c1cnn2-c1ccccc1	96.8%
Oc1ccc(Nc2nc(-c3ccc(Cl)cc3)cs2)cc1	96.6%
CCc1[nH]c(-c2ccc(OC)cc2)nc1-c1ccncc1	97.7%
Nc1nccc(-c2c(-c3ccc(F)cc3)ncn2C2CCNCC2)n1	96.3%
Cc1cncc2cccc(S(=O)(=O)N3CCCN(C(=O)CN)C[C@@H]3C)c12	93.1%
O=C1Cc2c([nH]c3ccc([N+](=O)[O-])cc23)-c2ccccc2N1	86.2%
